{"data": "Assay results of several laboratories", "PPARG": "Peroxisome proliferator-activated receptor gamma (PPARG, Homo sapiens, UniProt P37231)", "HDAC1": "Histone deacetylase 1 (HDAC1, Homo sapiens, UniProt Q13547)", "NSD2": "Histone-lysine N-methyltransferase NSD2 (NSD2, Homo sapiens, UniProt O96028)", "PPARG ligand-binding domain": "Peroxisome proliferator-activated receptor gamma, ligand-binding domain (PPARG, Homo sapiens, UniProt P37231)", "CCR5": "C-C chemokine receptor type 5 (CCR5, Homo sapiens, UniProt P51681)", "Rhomboid protease AarA": "Rhomboid protease AarA (Providencia stuartii, UniProt P46116)", "Melanoma-associated antigen 4 MAGE homology domain": "Melanoma-associated antigen 4, MAGE homology domain (Homo sapiens, UniProt P43358)", "note": "± marks the error that the study gave.", "sequence of UniProt P37231 (whole entry, looked up)": "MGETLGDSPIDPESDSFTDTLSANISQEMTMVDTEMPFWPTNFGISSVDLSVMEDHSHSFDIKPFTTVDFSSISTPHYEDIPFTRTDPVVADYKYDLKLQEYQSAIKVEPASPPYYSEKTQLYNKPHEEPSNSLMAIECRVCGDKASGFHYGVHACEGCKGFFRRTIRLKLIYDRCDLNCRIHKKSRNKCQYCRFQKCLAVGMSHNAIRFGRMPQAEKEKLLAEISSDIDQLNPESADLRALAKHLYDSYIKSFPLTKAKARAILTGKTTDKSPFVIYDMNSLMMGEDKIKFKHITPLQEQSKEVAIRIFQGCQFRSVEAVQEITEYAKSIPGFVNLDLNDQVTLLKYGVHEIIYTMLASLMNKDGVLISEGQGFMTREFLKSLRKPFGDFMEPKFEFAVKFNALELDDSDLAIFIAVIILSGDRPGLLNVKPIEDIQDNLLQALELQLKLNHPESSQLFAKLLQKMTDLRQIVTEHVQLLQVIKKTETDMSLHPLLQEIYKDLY", "sequence of UniProt P46116 (whole entry, looked up)": "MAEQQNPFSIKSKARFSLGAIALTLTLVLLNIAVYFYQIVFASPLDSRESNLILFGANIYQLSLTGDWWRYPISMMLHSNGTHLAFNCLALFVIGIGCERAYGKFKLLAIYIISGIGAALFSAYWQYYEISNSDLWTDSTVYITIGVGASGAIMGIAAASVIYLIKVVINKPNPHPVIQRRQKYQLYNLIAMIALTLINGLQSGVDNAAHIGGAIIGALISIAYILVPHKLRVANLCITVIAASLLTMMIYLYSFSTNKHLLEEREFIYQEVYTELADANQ", "sequence of UniProt O96028 (whole entry, looked up)": "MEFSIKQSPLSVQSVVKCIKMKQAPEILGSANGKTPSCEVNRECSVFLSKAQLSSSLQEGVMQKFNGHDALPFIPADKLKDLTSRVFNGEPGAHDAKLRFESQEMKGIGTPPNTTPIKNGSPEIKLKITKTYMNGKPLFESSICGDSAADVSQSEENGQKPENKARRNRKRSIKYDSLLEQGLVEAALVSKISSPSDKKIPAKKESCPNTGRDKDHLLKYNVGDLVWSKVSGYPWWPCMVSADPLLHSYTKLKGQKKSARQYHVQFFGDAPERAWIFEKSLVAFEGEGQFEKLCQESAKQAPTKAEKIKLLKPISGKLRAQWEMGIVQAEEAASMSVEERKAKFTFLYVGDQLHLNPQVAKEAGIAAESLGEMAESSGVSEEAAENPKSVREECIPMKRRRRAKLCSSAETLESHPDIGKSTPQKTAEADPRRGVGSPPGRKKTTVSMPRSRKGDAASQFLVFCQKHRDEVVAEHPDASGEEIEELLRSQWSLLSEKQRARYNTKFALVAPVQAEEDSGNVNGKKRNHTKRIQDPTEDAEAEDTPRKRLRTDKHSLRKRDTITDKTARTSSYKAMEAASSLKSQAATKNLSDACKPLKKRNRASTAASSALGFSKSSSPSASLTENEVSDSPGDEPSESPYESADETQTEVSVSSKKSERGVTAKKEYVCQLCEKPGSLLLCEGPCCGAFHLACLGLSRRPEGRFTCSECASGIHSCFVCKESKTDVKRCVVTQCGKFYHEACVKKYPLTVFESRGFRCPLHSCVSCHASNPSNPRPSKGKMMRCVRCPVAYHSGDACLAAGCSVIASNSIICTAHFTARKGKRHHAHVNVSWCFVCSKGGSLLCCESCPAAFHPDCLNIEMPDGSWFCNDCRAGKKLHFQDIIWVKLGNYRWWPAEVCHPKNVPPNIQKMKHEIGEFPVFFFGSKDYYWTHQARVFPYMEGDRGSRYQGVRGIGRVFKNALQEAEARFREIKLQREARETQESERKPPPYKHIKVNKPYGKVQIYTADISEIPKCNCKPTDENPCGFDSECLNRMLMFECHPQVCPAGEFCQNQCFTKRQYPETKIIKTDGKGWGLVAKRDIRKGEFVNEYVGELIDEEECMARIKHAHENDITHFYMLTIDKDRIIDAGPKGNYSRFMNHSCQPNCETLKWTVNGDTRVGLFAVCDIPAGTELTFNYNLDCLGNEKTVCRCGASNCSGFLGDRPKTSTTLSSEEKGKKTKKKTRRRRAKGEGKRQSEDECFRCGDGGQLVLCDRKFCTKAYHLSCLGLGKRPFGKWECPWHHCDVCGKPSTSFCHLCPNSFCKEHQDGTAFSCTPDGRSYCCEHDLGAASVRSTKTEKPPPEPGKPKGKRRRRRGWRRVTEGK", "sequence of UniProt P43358 (whole entry, looked up)": "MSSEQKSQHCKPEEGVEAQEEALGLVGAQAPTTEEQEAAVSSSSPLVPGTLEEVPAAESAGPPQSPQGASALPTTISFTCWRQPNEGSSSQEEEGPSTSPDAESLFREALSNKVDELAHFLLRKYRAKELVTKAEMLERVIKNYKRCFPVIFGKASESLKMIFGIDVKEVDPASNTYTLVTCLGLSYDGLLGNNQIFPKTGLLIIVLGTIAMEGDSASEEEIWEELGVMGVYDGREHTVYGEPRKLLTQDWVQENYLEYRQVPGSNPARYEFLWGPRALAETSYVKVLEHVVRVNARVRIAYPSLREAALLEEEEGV", "sequence of UniProt P51681 (whole entry, looked up)": "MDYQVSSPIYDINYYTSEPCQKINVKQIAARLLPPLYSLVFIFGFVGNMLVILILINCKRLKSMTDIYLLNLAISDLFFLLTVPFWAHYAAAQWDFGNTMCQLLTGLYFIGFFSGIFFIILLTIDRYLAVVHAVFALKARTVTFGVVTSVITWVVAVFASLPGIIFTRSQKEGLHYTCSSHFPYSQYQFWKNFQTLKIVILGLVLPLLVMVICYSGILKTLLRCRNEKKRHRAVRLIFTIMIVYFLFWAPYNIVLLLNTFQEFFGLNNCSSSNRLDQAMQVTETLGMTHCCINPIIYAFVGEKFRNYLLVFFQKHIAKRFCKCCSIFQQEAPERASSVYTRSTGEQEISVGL", "sequence of UniProt Q13547 (whole entry, looked up)": "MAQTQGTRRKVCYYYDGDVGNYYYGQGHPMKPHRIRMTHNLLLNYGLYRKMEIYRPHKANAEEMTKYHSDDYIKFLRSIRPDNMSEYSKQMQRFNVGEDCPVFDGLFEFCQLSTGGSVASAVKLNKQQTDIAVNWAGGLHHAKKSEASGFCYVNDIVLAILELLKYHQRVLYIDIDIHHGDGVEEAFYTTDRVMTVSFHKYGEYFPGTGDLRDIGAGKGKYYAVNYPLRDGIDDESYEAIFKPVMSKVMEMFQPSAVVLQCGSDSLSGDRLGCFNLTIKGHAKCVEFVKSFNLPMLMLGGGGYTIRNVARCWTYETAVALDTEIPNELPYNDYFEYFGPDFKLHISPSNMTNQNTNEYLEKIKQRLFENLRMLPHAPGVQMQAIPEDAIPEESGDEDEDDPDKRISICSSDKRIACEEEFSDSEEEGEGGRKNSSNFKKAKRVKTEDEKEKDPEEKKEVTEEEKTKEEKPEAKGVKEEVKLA", "sequence of UniProt P08172 (whole entry, looked up)": "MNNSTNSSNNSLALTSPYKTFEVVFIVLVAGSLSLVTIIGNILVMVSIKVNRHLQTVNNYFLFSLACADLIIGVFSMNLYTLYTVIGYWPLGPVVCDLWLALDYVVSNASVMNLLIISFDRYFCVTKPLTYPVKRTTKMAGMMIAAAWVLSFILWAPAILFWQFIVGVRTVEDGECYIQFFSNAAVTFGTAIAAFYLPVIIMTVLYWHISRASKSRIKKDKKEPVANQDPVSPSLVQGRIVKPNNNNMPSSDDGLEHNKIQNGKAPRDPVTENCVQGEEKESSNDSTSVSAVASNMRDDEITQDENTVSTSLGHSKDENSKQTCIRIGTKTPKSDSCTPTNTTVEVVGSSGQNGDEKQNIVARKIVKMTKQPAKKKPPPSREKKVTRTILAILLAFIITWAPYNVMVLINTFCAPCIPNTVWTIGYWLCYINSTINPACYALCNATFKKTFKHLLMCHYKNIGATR", "sequence of UniProt Q7RTX0 (whole entry, unmodified, looked up)": "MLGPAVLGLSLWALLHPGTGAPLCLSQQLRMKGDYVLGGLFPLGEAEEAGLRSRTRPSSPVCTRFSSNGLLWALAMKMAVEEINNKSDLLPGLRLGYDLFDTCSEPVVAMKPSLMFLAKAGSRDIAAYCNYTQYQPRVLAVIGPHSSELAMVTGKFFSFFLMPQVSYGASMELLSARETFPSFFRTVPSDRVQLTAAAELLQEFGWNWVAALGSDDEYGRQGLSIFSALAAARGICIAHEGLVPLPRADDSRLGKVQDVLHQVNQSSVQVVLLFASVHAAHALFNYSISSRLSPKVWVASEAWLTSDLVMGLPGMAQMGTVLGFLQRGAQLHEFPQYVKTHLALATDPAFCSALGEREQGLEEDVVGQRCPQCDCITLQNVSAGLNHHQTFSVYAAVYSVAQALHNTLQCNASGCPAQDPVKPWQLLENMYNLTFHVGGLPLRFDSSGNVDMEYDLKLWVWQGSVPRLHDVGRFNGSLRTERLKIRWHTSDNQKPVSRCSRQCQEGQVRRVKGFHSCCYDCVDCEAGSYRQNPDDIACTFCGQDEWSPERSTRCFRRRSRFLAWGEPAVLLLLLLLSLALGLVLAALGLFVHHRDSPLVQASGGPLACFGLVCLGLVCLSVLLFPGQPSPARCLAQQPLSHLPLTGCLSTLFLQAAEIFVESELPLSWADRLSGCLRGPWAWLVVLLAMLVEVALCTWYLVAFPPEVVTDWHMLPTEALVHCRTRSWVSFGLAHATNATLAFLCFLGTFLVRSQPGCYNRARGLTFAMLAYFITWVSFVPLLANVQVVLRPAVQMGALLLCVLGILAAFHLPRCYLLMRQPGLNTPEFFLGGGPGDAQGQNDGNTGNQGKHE", "sequence of UniProt P32245 (whole entry, looked up)": "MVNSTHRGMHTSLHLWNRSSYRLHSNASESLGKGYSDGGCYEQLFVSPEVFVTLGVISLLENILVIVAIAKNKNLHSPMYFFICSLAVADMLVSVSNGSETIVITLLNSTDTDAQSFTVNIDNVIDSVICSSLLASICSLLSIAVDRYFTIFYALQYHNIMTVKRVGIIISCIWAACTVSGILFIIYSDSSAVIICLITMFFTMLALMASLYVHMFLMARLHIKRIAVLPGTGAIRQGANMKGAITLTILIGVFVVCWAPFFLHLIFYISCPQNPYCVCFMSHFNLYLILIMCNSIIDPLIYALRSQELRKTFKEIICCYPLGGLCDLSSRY"}
{"Compound": "O=C(CCNC(=O)CNC(=O)CC(c1ccccc1)(c1ccccc1)c1ccccc1)NC[C@@H]1CCCN(Cc2ccc(F)cc2)C1", "tested on": "Muscarinic acetylcholine receptor M2 (CHRM2, Homo sapiens, UniProt P08172)", "test": "ligand displacement, radioligand", "setting": "cell membranes", "measurement": "IC50", "result": "25.5 µM"}
{"Compound": "Cc1c(Cc2cc(Cl)cc(O[C@H](C)C(=O)O)c2)c2ccc(C(=O)N[C@@H](C)c3ccc(C(C)(C)C)cc3)cc2n1CC(C)C", "tested on": "PPARG", "test": "ligand displacement, TR-FRET", "measurement": "IC50", "result": "0.107 µM"}
{"Compound": "Cc1nc2c(F)cc(-c3nc(Nc4ccc(CC(=O)NCCCCCC(=O)NO)cc4)ncc3F)cc2n1C(C)C", "tested on": "HDAC1", "test": "enzyme activity, inhibitor", "measurement": "IC50", "result": "0.0084 µM"}
{"Compound": "Nc1nonc1-c1nnc2c(n1)-c1ccccc1C2=O", "tested on": "NSD2", "test": "enzyme activity, inhibitor, AlphaLISA", "measurement": "IC50", "result": "0.11 µM"}
{"Compound": "COCCn1cc2c(n1)CN(C(=O)Nc1nc(-c3ccc(F)cc3F)ccc1N)C2", "tested on": "Lysine-specific histone demethylase 1A, with CoREST (KDM1A, Homo sapiens, UniProt O60341)", "test": "demethylase activity, inhibitor", "setting": "LSD1-CoREST complex", "measurement": "IC50", "result": "> 150 µM"}
{"Compound": "Cc1c(Cc2cccc(OC(C)C(=O)O)c2)c2ccc(C(=O)N[C@@H](C)c3cccc(C(F)(F)F)c3)cc2n1C (stereo partly shown)", "tested on": "PPARG ligand-binding domain", "test": "reporter gene, luciferase reporter", "system": "HEK293T, Gal4-PPARγ LBD", "measurement": "IC50", "result": "1.94 µM"}
{"Compound": "O=C(NCC(F)(F)c1ccc(Cl)cc1Cl)c1cc(Cl)nnc1Oc1cccc(C2CC2)c1", "tested on": "serine palmitoyltransferase (Zymoseptoria tritici, UniProt F9X349+F9XMN6)", "measurement": "IC50", "result": "0.46 ± 0.015 µM"}
{"Compound": "Cc1nnc(-c2ccc(CC(=O)NC(CCN3C4CCC3CC(n3c(C)nnc3C(C)C)C4)c3ccccc3)cc2)nn1 (stereo not shown)", "tested on": "CCR5", "test": "calcium mobilization, antagonist", "system": "HEK-293T", "setting": "2 h preincubation, top constrained to 1, with: 0.1 µM PSC-RANTES", "measurement": "IC50", "result": "0.0195 µM"}
{"Compound": "Cc1nc2c(F)cc(-c3nc(Nc4ccc(NC(=O)CCCCCC(=O)NO)cc4)ncc3F)cc2n1C(C)C", "tested on": "HDAC1", "test": "enzyme activity, inhibitor", "measurement": "IC50", "result": "0.017 µM"}
{"Compound": "O=C1CC(c2ccc(Br)cc2)N1S(=O)(=O)c1cccc(Cl)c1 (stereo not shown)", "tested on": "Rhomboid protease AarA", "test": "enzyme activity, inhibitor", "measurement": "IC50", "result": "107 µM"}
{"Compound": "Cc1c(Cc2cccc(OC(C)(C)C(=O)O)c2)c2ccc(C(=O)N[C@@H](C)c3cccc(C(F)(F)F)c3)cc2n1C", "tested on": "PPARG", "test": "ligand displacement, TR-FRET", "measurement": "IC50", "result": "0.001 µM"}
{"Compound": "COC1CN([C@H]2CC[C@H]([C@@]3(C)Oc4c(Cl)cc(C(=O)NCc5c(SC)cc(C)[nH]c5=O)c(C)c4O3)CC2)C1", "test": "RNA-seq, item: CADM3", "system": "human, whole blood", "setting": "dose not given, 24 h", "how to read": "baseline: pretreatment baseline", "measurement": "log2 fold change", "result": 21.5}
{"Compound": "COc1ccc(Cl)cc1NC(=O)C(C(F)(F)F)C(F)(F)F", "tested on": "Rhomboid protease AarA", "test": "enzyme activity, inhibitor, fluorescence", "measurement": "IC50", "result": "3.4 µM"}
{"Compound": "Cc1nn(-c2cccc(N)c2)c(=O)c2cnc(Nc3ccc(N4CCNCC4)cc3)nc12", "tested on": "Serine/threonine-protein kinase pim-2 (PIM2, Homo sapiens, UniProt Q9P1W9)", "test": "enzyme activity, inhibitor", "measurement": "IC50", "result": "> 10 µM"}
{"Compound": "CCC1(CC)CC(=O)N(C2CCOc3ccc(C(=O)NC4CC(C)(C)Oc5ccccc54)cc32)C(=N)N1 (stereo not shown)", "tested on": "Sodium channel protein type 5 subunit alpha (SCN5A, Homo sapiens, UniProt Q14524)", "test": "ion current, inhibitor, patch clamp", "system": "HEK293", "setting": "pH 7.3", "measurement": "IC50", "result": "4.6 µM"}
{"Compound": "O=C1CCN1C(=O)NCc1ccccc1", "tested on": "Rhomboid protease AarA", "test": "enzyme activity, inhibitor, fluorescence", "measurement": "IC50", "result": "76 µM"}
{"Compound": "COc1cc(-c2cc(C(C)=O)n3ccccc23)cc(OC)c1Cn1ccnc1", "tested on": "CREB-binding protein (CREBBP, Homo sapiens, UniProt Q92793)", "test": "inhibitor", "measurement": "IC50", "result": "0.52 µM"}
{"Compound": "Cc1c(Cc2cccc(OC(C)(C)C(=O)O)c2)c2ccc(C(=O)N[C@H](C)c3cccc(C(C)(C)C)c3)cc2n1C", "tested on": "PPARG ligand-binding domain", "test": "reporter gene, luciferase reporter", "system": "HEK293T, Gal4-PPARγ LBD", "measurement": "IC50", "result": "43.5 µM"}
{"Compound": "CC(C)(Oc1ccc(Cl)cc1)C(=O)O", "tested on": "Taste receptor type 1 member 3, with T1R1 (TAS1R3, Homo sapiens, UniProt Q7RTX0, H641A)", "measurement": "IC50", "result": "410 µM"}
{"Compound": "CC(=O)NCCOc1ccccc1NC(=O)C(C(F)(F)F)C(F)(F)F", "tested on": "Rhomboid protease AarA", "test": "enzyme activity, inhibitor, fluorescence", "measurement": "IC50", "result": "27 µM"}
{"Compound": "CC[C@H](C)[C@@H]1NC(=O)[C@H](Cc2ccc(O)cc2)NC(=O)CCSCSCCNC(=O)[C@H](Cc2c[nH]cn2)NC(=O)[C@H](Cc2ccc(O)cc2)NC(=O)[C@H](CC(=O)O)NC(=O)[C@H](Cc2ccc(O)cc2)NC(=O)[C@H](CC(C)C)NC(=O)[C@H](CCCNC(=N)N)NC1=O", "tested on": "Melanoma-associated antigen 4 MAGE homology domain", "test": "binding, inhibitor, TR-FRET displacement", "setting": "with: Alexa647-MTP-1", "measurement": "IC50", "result": "0.0262 ± 0.0032 µM"}
{"Compound": "Cc1c(Cc2cccc(OC(C)(C)C(=O)O)c2)c2ccc(C(=O)N[C@@H](C)c3cccc(OC(F)(F)F)c3)cc2n1C", "tested on": "PPARG", "test": "ligand displacement, TR-FRET", "measurement": "IC50", "result": "0.001 µM"}
{"Compound": "O=C1CC(c2ccccc2)N1S(=O)(=O)c1ccc(Cl)cc1 (stereo not shown)", "tested on": "Rhomboid protease AarA", "test": "enzyme activity, inhibitor, fluorescence", "measurement": "IC50", "result": "35 µM"}
{"Compound": "O=C(OCN1C(=O)c2ccccc2C1=O)/C(=C\\c1ccco1)NC(=O)c1ccccc1", "tested on": "Cruzipain (Trypanosoma cruzi, UniProt P25779)", "test": "enzyme activity, inhibitor", "measurement": "IC50", "result": "1 µM"}
{"Compound": "CC[C@H](C)[C@@H]1NC(=O)[C@H](Cc2ccc(O)cc2)NC(=O)CSC[C@@H](C(N)=O)NC(=O)[C@H](CC(N)=O)NC(=O)[C@H](Cc2c[nH]cn2)NC(=O)[C@H](Cc2ccc(O)cc2)NC(=O)[C@H](CC(=O)O)NC(=O)[C@H](Cc2ccc(I)cc2)NC(=O)[C@H](CC(C)C)NC(=O)[C@H](CCCNC(=N)N)NC1=O", "tested on": "Melanoma-associated antigen 4 MAGE homology domain", "test": "binding, inhibitor, TR-FRET displacement", "setting": "with: Alexa647-MTP-1", "measurement": "IC50", "result": "0.108 ± 0.0093 µM"}
{"Compound": "CCCCCCCCCCCCCCN(O)C(=O)CCCCC[C@@H]1NC(=O)[C@H]([C@@H](C)CC)NC(=O)[C@H](Cc2ccccc2C(F)(F)F)NC(=O)CCSCc2cccc(n2)CSCCCNC1=O", "tested on": "Histone deacetylase 5 (HDAC5, Homo sapiens, UniProt Q9UQL6)", "test": "enzyme activity, inhibitor, fluorogenic", "measurement": "IC50", "result": "> 30 µM"}
{"Compound": "NCCCCCC(=O)N1CCc2cc(NC(=O)c3ccc(CN(C(=O)c4ccc5c(c4)OCC(=O)N5)C4CC4)cc3)ccc2C1", "tested on": "NSD2", "test": "ligand displacement, TR-FRET", "measurement": "IC50", "result": "~0.55 µM"}
{"Compound": "Cc1c(Cc2cccc(OC(C(=O)O)C(C)C)c2)c2ccc(C(=O)NC(C)c3cccc(C(C)(C)C)c3)cc2n1C (mixture of isomers)", "tested on": "PPARG ligand-binding domain", "test": "reporter gene, luciferase reporter", "system": "HEK293T, Gal4-PPARγ LBD", "measurement": "IC50", "result": "134 µM"}
{"Compound": "N#Cc1ccc(-c2ccc(NC(=O)C(C(F)(F)F)C(F)(F)F)cc2)cc1", "tested on": "Rhomboid protease AarA", "test": "enzyme activity, inhibitor, fluorescence", "measurement": "IC50", "result": "9.2 µM"}
{"Compound": "O=C(O)c1ccc(Oc2ccc(Cl)cc2NS(=O)(=O)c2ccc(Cl)c(Cl)c2)cc1", "tested on": "CCR5", "test": "antagonist", "system": "U2OS membranes", "setting": "25 °C, with: 20 nM CCL3", "measurement": "IC50", "result": "4.95 µM"}
{"Compound": "Cc1c(Cc2ccc(OC(C)C(=O)O)cc2Cl)c2ccc(C(=O)NC(C)c3ccc(C(C)(C)C)cc3)cc2n1C (stereo not shown)", "tested on": "PPARG", "test": "ligand displacement, TR-FRET", "measurement": "IC50", "result": "1.18 µM"}
{"Compound": "CC(=O)N[C@@H](CCCNC(=N)N)C(=O)N[C@H]1CSSC[C@@H](C(N)=O)NC(=O)[C@H](Cc2c[nH]c3ccccc23)NC(=O)[C@H](CCCNC(=N)N)NC(=O)[C@@H](Cc2ccc3ccccc3c2)NC(=O)[C@H](Cc2c[nH]cn2)NC(=O)[C@@H](C)NC1=O", "tested on": "Melanocortin receptor 4 (MC4R, Homo sapiens, UniProt P32245)", "test": "cAMP, antagonist, split-luciferase cAMP sensor", "setting": "12 min, with: α-MSH 70 nM (EC90)", "measurement": "IC50", "result": "0.0142 µM"}
{"Compound": "Cc1c(Cc2cccc(OC(C)(C)C(=O)O)c2)c2ccc(C(=O)N[C@@H](C)c3cccc(C(C)(C)C)c3)cc2n1CC(C)C", "tested on": "PPARG", "test": "ligand displacement, TR-FRET", "measurement": "IC50", "result": "0.00207 µM"}
{"Compound": "COCCOc1ccccc1NC(=O)C(C(F)(F)F)C(F)(F)F", "tested on": "Rhomboid protease AarA", "test": "enzyme activity, inhibitor, fluorescence", "measurement": "IC50", "result": "7.2 µM"}
{"note": "Excerpt of the above:"}
{"Compound": "Cc1c(Cc2cccc(OC(C(=O)O)C(C)C)c2)c2ccc(C(=O)NC(C)c3cccc(C(C)(C)C)c3)cc2n1C (mixture of isomers)", "tested on": "PPARG ligand-binding domain", "test": "reporter gene, luciferase reporter", "system": "HEK293T, Gal4-PPARγ LBD", "measurement": "IC50", "result": "134 µM"}
{"Compound": "N#Cc1ccc(-c2ccc(NC(=O)C(C(F)(F)F)C(F)(F)F)cc2)cc1", "tested on": "Rhomboid protease AarA", "test": "enzyme activity, inhibitor, fluorescence", "measurement": "IC50", "result": "9.2 µM"}
